# Measurements of several laboratories.
# Parts stem from different laboratories: compare values within a part only.

# Sample 1 — method: protein-binding microarray; form: double-stranded DNA, one strand shown; sample: in vitro; tested at: 250 nM; notes: 60-bp whole probe; added: salmon DNA 0.4 mg/ml; baseline: random background probes; reading: higher = stronger binding
# Target: Interferon regulatory factor 5, full length, phosphomimetic (IRF5, Homo sapiens, UniProt Q13568-2, residues 1-514, K96S/S451D/S453D/S456D/S462D)
Strand,log fluorescence [z-score]
GCCTAGCACGACGATTTCGGGTCTGGAGACGTGCTAGTCTTGATTCGCTTGACGCTGCTG,2.94
GCCTAGCACTTAGGACTGGGGTCTCGGTTAGTGCTAGTCTTGATTCGCTTGACGCTGCTG,-0.17
GCCTAGCACTCACCTTTGCCTCATCTTACTGTGCTAGTCTTGATTCGCTTGACGCTGCTG,0.388

# Sample 2 — method: universal PBM; form: double-stranded DNA, one strand shown; sample: in vitro; tested at: not given; reading: higher = stronger binding
# Target: Sal-like protein 4, full length isoform B (SALL4, Homo sapiens, UniProt Q9UJQ4-2, residues 1-616)
# Notes: 8-mer, flanks averaged, mean of replicates
Strand,E-score
AGTTCCGG,-0.315
GCGGAAGA,-0.095
CACAGTAG,0.0504
AGGGTGGC,-0.159
CTAGTTCA,0.0708
AATTAGTA,0.336

# Sample 3 — method: aptamer microarray, sandwich; form: DNA with 2'F-ANA; sample: in vitro; tested at: 200 nM; added: Cy3 exosite-II aptamer, 400 nM; reading: higher = stronger binding; strand: GGTTGGTGTGGTTGG
# Target: Prothrombin, mature alpha-thrombin (F2, Homo sapiens, UniProt P00734)
# Notes: whole 15-mer aptamer, many near background
Modification,mean fluorescence intensity [a.u.]
2'F-ANA at 2 3 5 7 8 9 10 15,79.6
2'F-ANA at 3 6 7 9 11 12 15,866
2'F-ANA at 2 4 5 7 12 13 15,95
2'F-ANA at 1 2 6 8 9 11 13 14 15,50.7
2'F-ANA at 3 5 9 10 13,64.6
2'F-ANA at 1 2 4 6 7 8 9 10 12 13 14 15,49.6

# Mixed results
Substance,target,test,test system,setting,how to read,endpoint,result
"PhoQ, residues 284 288 289 292 302 303 DDMDFR","PhoP, residues 12 14 15 18 19 NQAHL (Escherichia coli, UniProt P23836)","Sort-seq, refers to: YFP reporter",E. coli,"PhoQ-PhoP variant library, added: 10 µM Mg2+","baseline: high Mg2+ state, higher = stronger signaling",fold induction,1.03

# Repeated from above (sample 3):
Modification,mean fluorescence intensity [a.u.]
2'F-ANA at 1 2 6 8 9 11 13 14 15,50.7
